Results gathered from unrelated publications.
Each numbered part is a random draw from the data of one study; scales do not carry over between parts. Changes are numbered by the printed parent chain.

Block 1
Target: RING finger protein unkempt homolog, zinc fingers 1-6, GST-SBP tag (UNK, Homo sapiens, UniProt Q9C0B0, residues 30-357)
Method: RNA Bind-n-Seq
Molecule type: RNA
Sample: in vitro
Tested at: not given
Setting: RNA with constant flanks, human and mouse sites, ends assumed
Baseline: input RNA pool
Reading: higher = stronger binding
Residues (chain): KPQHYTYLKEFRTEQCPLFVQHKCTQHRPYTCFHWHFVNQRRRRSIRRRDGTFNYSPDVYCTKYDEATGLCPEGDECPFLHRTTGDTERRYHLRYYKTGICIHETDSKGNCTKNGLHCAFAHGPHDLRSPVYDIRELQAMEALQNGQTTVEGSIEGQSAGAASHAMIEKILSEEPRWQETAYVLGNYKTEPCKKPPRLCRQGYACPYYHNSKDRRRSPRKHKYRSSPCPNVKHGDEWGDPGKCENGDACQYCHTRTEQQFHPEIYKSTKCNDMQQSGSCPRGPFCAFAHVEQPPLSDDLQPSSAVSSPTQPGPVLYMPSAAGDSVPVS
Strand	bound/input enrichment
GGGAGUUCUACAGUCCGACGAUCUACGGGACCCUGGACACUCACCUGGUGUACUCAGAAGAGUCCCCUCUGAGCUGAGACCGUGCUAGGCUGCUGUGCAGUUUGGCGCAGUGACAGACCCGGCUUUUGUUUCUGGGCUUCCAGCAACAGAGGAUUGAGCAUCA	0.0417 ratio
GGGAGUUCUACAGUCCGACGAUCAAAAAUCCUUGUGGUUAACAGCAGAGGCUUCAGAGUGUAACCUGUACUCGGGCCUAGAAAUUAUUUAAAAUGGCGACUGAUACGUCUCAAGGUGAACUCGUCCAUCCUAAGGCACUCCCACAACAGAGGAUUGAGCAUCA	0.496 ratio
GGGAGUUCUACAGUCCGACGAUCCCCAACAACACAGUAGUUGGGUCAUCAUAUGUACUUUUUGUCUUAUCGAUUUUCUUCACAAUAGUAGGACUUCUGUUUGCUGGCAAAGUCUGUUUACCAGGCUGACGAAUGUCUAAACGGCAACAGAGGAUUGAGCAUCA	0.212 ratio
GGGAGUUCUACAGUCCGACGAUCAACAUUUCUACUCUACCAGAGAGUCUUUUAUCCAGUCUUGUAAAAUUGAAUAGCUUGACCUUAGCUAGAAAUUGCUUCCAGUUAUAUCCAGUGGGAGGUCCAUCUCAGUUUUCCACCAUUCAACAGAGGAUUGAGCAUCA	0.376 ratio

Block 2
Target: Prothrombin, mature alpha-thrombin (F2, Homo sapiens, UniProt P00734)
Method: aptamer microarray, sandwich
Molecule type: DNA with 2'F-ANA
Sample: in vitro
Tested at: 200 nM
Setting: whole 15-mer aptamer, many near background
Together with: Cy3 exosite-II aptamer, 400 nM
Reading: higher = stronger binding
Strand: GGTTGGTGTGGTTGG
Modification	mean fluorescence intensity [a.u.]
2'F-ANA at 1 3 4 5 7 8 9 10 11 13 14	73.9
2'F-ANA at 6 7 8 9 10 11 12 14	255
2'F-ANA at 2 3 4 5 7 12 13 14 15	51.7
2'F-ANA at 1 2 5 7 8 10 12 13 15	53.3
2'F-ANA at 2 3 7 8 9 10 11 13 14 15	260
2'F-ANA at 1 3 4 6 7 10 11 12 14 15	53.4
2'F-ANA at 2 5 6 7 8 11 12 13 14	54.1
2'F-ANA at 1 4 5 8 9 10 12 14	107
2'F-ANA at 2 5 12	196
2'F-ANA at 1 6 7 8 9 10 11 13 14 15	53.1
2'F-ANA at 2 3 4 5 7 8 12 14	274
2'F-ANA at 1 2 4 5 6 7 8 10 11 14 15	57.6
2'F-ANA at 1 6 11 13 14 15	54.6

Block 3
Target: TAR DNA-binding protein 43, full length, His tag (TARDBP, Homo sapiens, UniProt Q13148, residues 1-414)
Method: RNA Bind-n-Seq
Molecule type: RNA
Sample: in vitro
Tested at: 20 nM
Setting: 6-mer, flanks averaged, single round
Together with: 150 mM LiCl
Baseline: input library
Reading: higher = stronger binding
Strand	6-mer enrichment (R)
GAACAA	0.89
GAGUCG	1.03
UUAACC	0.941
CUUCGU	0.88
GCAUUG	0.939
GAUCGA	0.919
ACACCA	0.989
AUUCAG	0.869
CAUUCG	0.812
GAAGCG	1.02
CUGAAC	0.832
UGCGAG	1.11
CUAUCC	0.876
UAUAAC	0.936
AAGCGU	0.954
GAACCG	0.902
CCUUGU	1.16
GUGCUC	0.94
AGAUGG	1.04
CCGUUG	0.944
ACCACC	0.961
AAGCAU	0.846
GAUGAU	0.971

Block 4
Target: CCND2, cyclin fold, Cln2 fusion (human)
Method: yeast growth competition, sequencing
Sample: yeast
Setting: weak parent motif
Baseline: not given
Reading: higher = stronger binding
Starting sequence: RBL1 docking peptide (human); GSAKRRLFGEDPP; partner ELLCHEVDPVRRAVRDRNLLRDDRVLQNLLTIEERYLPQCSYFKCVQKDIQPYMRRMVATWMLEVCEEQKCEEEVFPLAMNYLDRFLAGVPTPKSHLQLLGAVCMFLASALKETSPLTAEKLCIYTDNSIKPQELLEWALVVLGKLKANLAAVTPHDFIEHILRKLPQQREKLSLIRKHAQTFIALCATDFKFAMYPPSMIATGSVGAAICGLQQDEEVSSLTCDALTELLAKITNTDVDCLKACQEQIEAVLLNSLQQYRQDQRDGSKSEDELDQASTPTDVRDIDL
Variant	normalised enrichment score
GSAKRFLFGEDPP [R6F]	0.328
GSAIRRLFGEDPP [K4I]	0.662
GSAKRRLFHEDPP [G9H]	0.177
QSAKRRLFGEDPP [G1Q]	-0.0186
GSAKRRLFGEHPP [D11H]	0.294
GSAKRRLFGMDPP [E10M]	0.114
KSAKRRLFGEDPP [G1K]	0.405
GSAKRALFGEDPP [R6A]	0.144
GSAKRRLFGEDVP [P12V]	0.418
ASAKRRLFGEDPP [G1A]	0.41
GSAKRRLFGEDFP [P12F]	0.0707
GSAKRRLFMEDPP [G9M]	0.364
GVAKRRLFGEDPP [S2V]	0.467
GSAKRYLFGEDPP [R6Y]	0.691
CSAKRRLFGEDPP [G1C]	0.0347
GSAKRRLFDEDPP [G9D]	0.703
GSAKRRWFGEDPP [L7W]	0.431

Block 5
Target: Sal-like protein 4, full length isoform B (SALL4, Homo sapiens, UniProt Q9UJQ4-2, residues 1-616)
Method: universal PBM
Molecule type: double-stranded DNA, one strand shown
Sample: in vitro
Tested at: not given
Setting: 8-mer, flanks averaged, mean of replicates
Reading: higher = stronger binding
Strand	E-score
TCTTAGCA	-0.035
CATAACGG	0.0352
CGTGAACG	-0.154
GAAGCTGA	0.0431
CCATGGGG	-0.256
AGTCCTGA	-0.126
AGTATAGA	0.176
AGGATAAT	0.215
CGCCTGAC	-0.142
AGTGGGCC	-0.323
AGGCATTC	-0.16
ATGTGTGG	-0.0752
GTCGCTGA	-0.00541
GTTCGGTA	0.00015
AGTCGCAT	-0.00844

Block 6
Target: Histone acetyltransferase KAT6A, both winged helices, GST fusion (KAT6A, Homo sapiens, UniProt Q92794, residues 1-181)
Method: protein binding microarray
Molecule type: double-stranded DNA, one strand shown
Sample: in vitro
Tested at: not given
Setting: 8-mer, flanks averaged, mean of 2 arrays, mostly near background
Baseline: not given
Reading: higher = stronger binding
Construct (chain): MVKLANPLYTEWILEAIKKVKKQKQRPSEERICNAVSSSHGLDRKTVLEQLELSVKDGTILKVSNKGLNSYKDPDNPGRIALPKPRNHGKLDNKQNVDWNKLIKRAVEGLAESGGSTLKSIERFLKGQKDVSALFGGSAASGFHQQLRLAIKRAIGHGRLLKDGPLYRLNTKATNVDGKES
Strand	E-score
ACACGTCG	0.11
AGCAACTC	-0.128
CACGATTC	0.0656
ACTCAAGG	-0.159
TACAAGCA	-0.0566
GGTCCGGA	0.146
ATGTCGCC	0.0604
AAATTTAC	-0.00591
AGCAAAAG	-0.108
CGCACTAA	0.0556
ACTCCTCC	-0.18
GTCTCCAA	-0.0253
ATCTGAGA	-0.219
CATCCCCC	-0.155
CGGGGCTA	-0.0162
AGAGTACT	-0.0752

Further values, each from its own experiment
Substance	partner	assay	test system	setting	measurement	result
FBL (Homo sapiens, UniProt P22087)	UTP11 (Homo sapiens, UniProt Q9Y3A2)	cross-linking MS	cell fractions	together with: DSSO	cross-linked residues	K102 to K197

For quick reference, copied from above (block 3):
Strand	6-mer enrichment (R)
GUGCUC	0.94
ACCACC	0.961
GAUCGA	0.919
AAGCAU	0.846
CUGAAC	0.832
UGCGAG	1.11
CCUUGU	1.16
CCGUUG	0.944
GCAUUG	0.939
ACACCA	0.989
GAACAA	0.89
AGAUGG	1.04
